Published values of several laboratories.
A part holds a random share of what one study measured.

Sample 1
Target: Histone acetyltransferase KAT6A, winged helix 1, GST fusion (KAT6A, Homo sapiens, UniProt Q92794, residues 1-85)
Technique: protein binding microarray
Form: double-stranded DNA, one strand shown
Medium: in vitro
Concentration: not given
Setting: 8-mer, flanks averaged, mean of 2 arrays, mostly near background
Reference: not given
Direction: higher = stronger binding
Target sequence (chain): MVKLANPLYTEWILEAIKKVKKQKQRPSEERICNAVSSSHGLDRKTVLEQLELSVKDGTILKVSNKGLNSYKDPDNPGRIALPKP
Oligonucleotide	E-score
CAAGTTTA	-0.115
AGCCACAT	-0.271
CAACTGTC	-0.135
CCCCTCGG	0.106
CTAGATAG	-0.11

Sample 2
Target: Prothrombin, mature alpha-thrombin (F2, Homo sapiens, UniProt P00734)
Technique: aptamer microarray, sandwich
Form: DNA with 2'F-ANA
Medium: in vitro
Concentration: 200 nM
Setting: whole 15-mer aptamer, many near background
Added: Cy3 exosite-II aptamer, 400 nM
Direction: higher = stronger binding
Oligonucleotide	mean fluorescence intensity [a.u.]
GGTTGGTGTGGTTGG (2'F-ANA at 1 2 4 5 7 11 13 14)	45.7
GGTTGGTGTGGTTGG (2'F-ANA at 3 7 8 10 12 13 14)	438
GGTTGGTGTGGTTGG (2'F-ANA at 2 3 4 7 8 9 10 12 15)	364
GGTTGGTGTGGTTGG (2'F-ANA at 1 3 4 5 7 8 10)	47.4

Sample 3
Target: Interferon regulatory factor 5, full length, phosphomimetic (IRF5, Homo sapiens, UniProt Q13568-2, residues 1-514, K96S/S451D/S453D/S456D/S462D)
Technique: protein-binding microarray
Form: double-stranded DNA, one strand shown
Medium: in vitro
Concentration: 250 nM
Setting: 60-bp whole probe
Added: salmon DNA 0.4 mg/ml
Reference: random background probes
Direction: higher = stronger binding
All sequences stand within: GCCTAGCAC … GTCTTGATTCGCTTGACGCTGCTG
Oligonucleotide	log fluorescence [z-score]
GACGGTCTCCTTTTCCTGCCGTGCTAG	0.136
CTCACTCTAATCTCACTCTGTGTGCTA	0.464
TCACACACCATTCTCGGACTGTGCTAG	0.0553
TTACAATTTGCTTTAGTCATGTGCTAG	0.675
GACGATATCACTATCGAGACGTGCTAG	4.63
AACCGCACAGAACTAAAACAGTGCTAG	0.217
GACGGTTTCGGGACTCGGGACGTGCTA	4.6

Single results of other studies
Substance	target	assay	test system	setting	scale	endpoint	value
PhoQ, residues 284 288 289 292 302 303 TNASYF	PhoP, residues 12 14 15 18 19 NHFRA (Escherichia coli, UniProt P23836)	Sort-seq, item: YFP reporter	E. coli	PhoQ-PhoP variant library, added: 10 µM Mg2+	reference: high Mg2+ state, higher = stronger signaling	fold induction	1.2
